Measured values collected from several papers.
A part holds a random share of what one study measured. Changes are numbered by the printed parent chain.
UniProt Q15835, sequence (whole entry, looked up): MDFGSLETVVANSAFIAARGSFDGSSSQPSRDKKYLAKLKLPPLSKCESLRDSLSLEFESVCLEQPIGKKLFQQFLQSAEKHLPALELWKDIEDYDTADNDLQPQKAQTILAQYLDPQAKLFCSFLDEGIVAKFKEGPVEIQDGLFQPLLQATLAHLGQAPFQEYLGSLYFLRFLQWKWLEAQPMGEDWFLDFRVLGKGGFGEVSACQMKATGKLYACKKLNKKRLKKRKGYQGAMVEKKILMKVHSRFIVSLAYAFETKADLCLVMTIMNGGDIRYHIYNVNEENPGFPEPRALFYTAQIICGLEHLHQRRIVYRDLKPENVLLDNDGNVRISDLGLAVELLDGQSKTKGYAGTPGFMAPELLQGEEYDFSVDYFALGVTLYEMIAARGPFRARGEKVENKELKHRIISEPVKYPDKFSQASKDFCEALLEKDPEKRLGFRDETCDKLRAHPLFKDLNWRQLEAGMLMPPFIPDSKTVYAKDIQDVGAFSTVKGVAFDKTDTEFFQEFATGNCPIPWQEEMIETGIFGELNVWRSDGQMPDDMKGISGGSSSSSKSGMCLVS

Sample 1
Target: CCNE2, cyclin fold, Cln2 fusion (human)
Method: yeast growth competition, sequencing
Matrix: yeast
Notes: strong parent motif
Relative to: not given
Reading: higher = stronger binding
Parent: viral docking peptide; TSVRRALFTGGSD
Change	normalised enrichment score
T9D	2.57
V3F	1.52
S12Q	4.41
A6N	3.31
V3Y	2.03
A6E	2.06
S12I	3.79
R5M	0.271

Sample 2
Target: UDP-N-acetylglucosamine--peptide N-acetylglucosaminyltransferase 110 kDa subunit (OGT, Homo sapiens, UniProt O15294)
Read-out: binding
Method: phage display NGS
Form: peptide
Tested at: concentration not given
Relative to: input library
Target sequence (O15294 1-1046): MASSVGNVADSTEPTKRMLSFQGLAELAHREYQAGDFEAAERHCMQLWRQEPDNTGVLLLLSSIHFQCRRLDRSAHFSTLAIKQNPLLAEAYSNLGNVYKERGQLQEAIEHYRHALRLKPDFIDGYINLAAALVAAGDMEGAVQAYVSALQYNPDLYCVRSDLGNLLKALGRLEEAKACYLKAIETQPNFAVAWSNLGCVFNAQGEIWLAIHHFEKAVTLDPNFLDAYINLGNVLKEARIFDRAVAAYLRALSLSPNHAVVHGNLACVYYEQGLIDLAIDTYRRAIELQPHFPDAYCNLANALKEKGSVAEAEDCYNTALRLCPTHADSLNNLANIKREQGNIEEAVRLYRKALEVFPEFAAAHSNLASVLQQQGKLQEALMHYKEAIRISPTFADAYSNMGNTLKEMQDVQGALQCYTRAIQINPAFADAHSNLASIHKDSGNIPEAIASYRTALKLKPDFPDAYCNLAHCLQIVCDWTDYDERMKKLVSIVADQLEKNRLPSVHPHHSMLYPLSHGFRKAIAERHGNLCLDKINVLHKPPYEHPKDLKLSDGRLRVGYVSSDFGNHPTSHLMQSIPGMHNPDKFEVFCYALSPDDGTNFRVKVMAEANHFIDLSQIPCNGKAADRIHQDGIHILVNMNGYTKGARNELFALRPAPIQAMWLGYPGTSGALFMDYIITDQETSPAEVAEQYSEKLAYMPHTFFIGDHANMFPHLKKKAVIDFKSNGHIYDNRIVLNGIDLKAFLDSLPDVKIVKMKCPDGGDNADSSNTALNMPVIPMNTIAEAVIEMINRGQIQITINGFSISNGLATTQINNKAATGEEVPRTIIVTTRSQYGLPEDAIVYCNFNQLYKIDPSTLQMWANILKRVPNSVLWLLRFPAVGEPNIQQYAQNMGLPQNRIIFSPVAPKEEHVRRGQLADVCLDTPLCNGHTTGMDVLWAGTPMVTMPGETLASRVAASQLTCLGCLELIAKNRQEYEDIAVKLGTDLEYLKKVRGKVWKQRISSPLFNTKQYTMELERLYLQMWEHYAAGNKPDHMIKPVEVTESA
Molecule	enrichment fold change
HPKFLPSMHHYPQGD	4.4
TNSANKPVHHHVVDT	2.26
YSTHDTHMWHQTHAM	3.69
NPHAHHIVSHTGFVH	4.32
HVDTWHMSHHNYTH	6.92
HVQNGHTHKIHAHEV	4.23
HVFHDQQSLLHMDKH	9.73
NIMPAYQIMYPANFR	25.2

Sample 3
Target: vanadate, free oxyanion
Method: microfluidic competitive inhibition
Matrix: in vitro, cell-free expressed
Tested at: not given
Notes: derived from inhibition constants, unchanged parent 676 nM
Reading: lower = stronger binding
Parent: PafA, mature enzyme, eGFP fusion (Elizabethkingia meningoseptica, UniProt Q9KJX5); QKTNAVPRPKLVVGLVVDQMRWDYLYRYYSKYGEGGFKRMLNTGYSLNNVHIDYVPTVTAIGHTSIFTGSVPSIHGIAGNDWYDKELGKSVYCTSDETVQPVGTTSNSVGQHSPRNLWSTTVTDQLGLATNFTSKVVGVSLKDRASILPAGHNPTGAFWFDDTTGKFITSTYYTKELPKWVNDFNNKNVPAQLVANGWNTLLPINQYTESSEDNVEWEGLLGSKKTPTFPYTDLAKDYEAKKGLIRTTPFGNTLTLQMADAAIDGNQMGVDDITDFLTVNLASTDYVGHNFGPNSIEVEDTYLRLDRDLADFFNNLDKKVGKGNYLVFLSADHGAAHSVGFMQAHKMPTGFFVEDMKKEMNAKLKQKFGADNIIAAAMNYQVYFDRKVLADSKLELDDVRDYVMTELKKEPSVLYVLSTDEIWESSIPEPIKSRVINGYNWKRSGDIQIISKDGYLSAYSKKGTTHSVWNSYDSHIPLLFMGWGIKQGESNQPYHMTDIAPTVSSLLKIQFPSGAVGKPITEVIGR
Change	oxyanion analog dissociation constant
P56V	2.54 µM
G454V	679 nM
S295V	713 nM
D161G	1.52 µM
V523G	939 nM
V382G	650 nM
L148G	798 nM
A377V	593 nM

Other studies, line by line
Compound	target	test	endpoint	value
CNC(=O)c1ccc(-c2cnn3ccc(C(=O)N(C)c4ccc(Cl)c(C(=O)OC)c4)cc23)cc1	Rhodopsin kinase GRK1 (GRK1, Homo sapiens, UniProt Q15835)	enzyme activity, inhibitor	IC50	> 30 µM

For quick reference, copied from above (sample 2):
Molecule	enrichment fold change
HPKFLPSMHHYPQGD	4.4
TNSANKPVHHHVVDT	2.26
YSTHDTHMWHQTHAM	3.69
